Measured values pooled from the literature.
Lines come from different studies, so protocols differ. “And” joins repeats or separate records; there may be more than shown. ± marks the error that the study gave.

| Compound | tested on | test | setting | scale | endpoint | result |
| --- | --- | --- | --- | --- | --- | --- |
| CCOC(=O)c1nn(-c2ccccc2)c(C#N)c1N | human PBMC monocytes | phagocytosis of anti-D RBCs |  |  | IC50 | 53.3 ± 17.4 µM |
| CC(C)(C)c1cnc(CSc2cnc(NC(=O)C3CCN(C(=O)CCCCCCCN4Cc5cc6c(cc5C4)C(=O)N(C4CCC(=O)NC4=O)C6=O)CC3)s2)o1 (stereo not drawn) | TC-71 | cell growth, MTT | 72 h |  | IC50 | 0.0085 ± 0.0002 µM |
| CC1(C)COc2ccc(F)cc2CN2c3nc4c(cnn4cc3OC[C@H]2C(F)F)C(=O)N1 | Ba/F3 EML4-ALK variant 1 S1206F | cell viability |  |  | IC50 | 0.0123 µM |
| C=CC(=O)N1CCC[C@@H](n2nc(-c3ccc(Oc4ccccc4)cc3)c3c(N)ncnc32)C1 | Ramos | calcium flux, FLIPR | 4 h preincubation |  | IC50 | 0.00039 µM |
| C[C@H]1Oc2cc(cnc2N)-c2c(nn(C)c2C#N)CN(C)C(=O)c2ccc(F)cc21 | Ba/F3 EML4-ALK variant 1 E1210K | cell viability |  |  | IC50 | 0.00102 µM |
| C[C@H](Nc1ccc2c(c1)OCCn1cc(N3C(=O)OC[C@H]3C(F)F)nc1-2)C(N)=O | SK-OV-3 | western blot, item: phospho-PKB/Akt Ser473 | 2 h |  | IC50 | 0.0098 µM |
| C[C@H]1CN(C2COC2)CCN1c1ccc(Nc2cc(-c3ccnc(N4CCn5c(cc6c5CC(C)(C)C6)C4=O)c3CO)cn(C)c2=O)nc1 | Ramos | calcium flux, FLIPR | 2 h preincubation |  | IC50 | 0.00456 µM |
| C=CC(=O)N1CCC(COCC(=O)N2CCN(c3nc(-c4cnc(N)nc4C(F)F)nc(N4CCOC[C@@H]4C)n3)CC2)CC1 | T47D | FOXO1 translocation, kinase translocation reporter | 2 h |  | IC50 | 0.0149 µM |
| Nc1nc2c(ncn2[C@@H]2O[C@H](COP(=O)(O)OP(=O)(O)OP(=O)(O)O)[C@@H](O)[C@H]2O)c(=O)[nH]1 |  | binding, equilibrium dialysis LC-MS | 5 µM, thermostabilized A2AR-BRIL construct | reference: no-protein control, direction not given | z-scored log2 fold change | -5.34 |
| O=C(C[C@@H](C(F)F)n1ccc(F)n1)N1CCC(O)(Cn2cnc3c(cnn3-c3ccc(F)cc3)c2=O)CC1 | CHP-212 parental | cell viability, SRB |  |  | IC50 | 0.112 µM and 0.0842 µM and 0.0863 µM |
| CC1=CC(=O)C(C(C)C)=CC1=O | HK-2 | cell viability, CCK-8 | 24 h |  | IC50 | 79 ± 5.62 µM |
| C[C@@H]1CN(C(=O)c2ccc(NC(=O)c3cc(O[C@H](C)c4c(Cl)ccc(F)c4Cl)c(N)nn3)cc2)C[C@H](C)N1 | Ba/F3 EML4-ALK variant 1 E1210K | cell viability |  |  | IC50 | 0.0642 µM |
| CC(C)(C)c1cnc(CSc2cnc(NC(=O)C3CCN(C(=O)CCCCCCCCCCCN4Cc5cc6c(cc5C4)C(=O)N(C4CCC(=O)NC4=O)C6=O)CC3)s2)o1 (stereo not drawn) | TC-71 | cell growth, MTT | 72 h |  | IC50 | 0.0799 ± 0.0058 µM |
| C[C@H](Nc1ccc2c(c1)OCCn1cc(N3C(=O)OC[C@H]3C(F)F)nc1-2)C(N)=O | NCI-H358 (PIK3CA WT, KRAS G12C) | basal AKT phosphorylation, HTRF, item: phospho-AKT | 4 h |  | IC50 | 0.0157 ± 0.0029 µM |
| CCCCN1C[C@H](O)[C@@H](O)[C@@H](O)[C@H]1CO | sample G patient fibroblasts | GlcCer level lowering, LC-MS/MS, item: GlcCer d18:1/24:1 | 216 h |  | IC50 | 30.9 µM |
| CCOC(=O)c1nn(-c2ccccc2)c(C#N)c1NC(=O)c1nn(CC)cc1Cl | human PBMC monocytes | phagocytosis of anti-D RBCs |  |  | IC50 | > 100 µM |
| C=CC(=O)N1CCC[C@@H](c2ccc(C(N)=O)c3[nH]ccc23)C1 | Ramos | calcium flux, FLIPR | 2 h preincubation |  | IC50 | > 1 µM |

| Compound | tested on | test | setting | scale | endpoint | result |
| --- | --- | --- | --- | --- | --- | --- |
| COc1cc(N2CCC(N3CCN(C)CC3)CC2)ccc1Nc1ncc(Cl)c(Nc2ccccc2P(C)(C)=O)n1 | KARPAS-299 (NPM1-ALK) | cell viability |  |  | IC50 | 0.00825 µM |
| CCC(=O)N1CCC(COCC(=O)N2CCN(c3nc(-c4cnc(N)nc4C(F)F)nc(N4CCOC[C@@H]4C)n3)CC2)CC1 | SK-OV-3 | western blot, item: phospho-S6 Ser235/Ser236 | 2 h |  | IC50 | 0.0787 µM |
| CC(=O)c1c(C)c2cnc(Nc3ccc(N4CCNCC4)cn3)nc2n(C2CCCC2)c1=O | MCF7/luciferase, wild type | cell proliferation |  |  | IC50 | 0.0538 µM |
| Nc1nc2c(ncn2[C@@H]2O[C@@H]3COP(=O)(O)O[C@H]3[C@H]2O)c(=O)[nH]1 |  | binding, equilibrium dialysis LC-MS | 5 µM, thermostabilized A2AR-BRIL construct | reference: no-protein control, direction not given | z-scored log2 fold change | 0.777 |
| Cc1nc(NC(=O)N2CCC[C@H]2C(N)=O)sc1-c1ccnc(C(C)(C)C(F)(F)F)c1 | SK-OV-3 | FOXO1 translocation, kinase translocation reporter | 2 h |  | IC50 | 1.28 µM |
| CCOC(=O)c1nn(-c2ccccc2)c(C#N)c1NC(=O)c1nn(CC)cc1C | human PBMC monocytes | phagocytosis of anti-D RBCs |  |  | IC50 | 37.3 ± 6.2 µM |
| CCN1CCN(Cc2ccc(NC(=O)c3ccc(C)c(-c4ccc5nc(NC(=O)C6CC6)cn5n4)c3)cc2C(F)(F)F)CC1 | SET-2 | cell viability, CellTiter-Glo | 72 h |  | IC50 | 1.01 µM |
| CC#CC(=O)N1CCC[C@H]1c1nc(-c2ccc(C(=O)Nc3ccccn3)cc2)c2c(N)nccn12 | Ramos | calcium flux, FLIPR | 1 h preincubation |  | IC50 | 0.065 µM |
| COc1cc2c3c(n(CCCn4ccnc4)c(=O)c2cc1OC)-c1nc2c(cc1C3=O)OCO2 | TC-106 Ewing sarcoma cells | cytotoxicity, MTS | 72 h |  | IC50 | 0.229 ± 0.016 µM |
| Cc1nc(Nc2ncc(C(=O)Nc3c(C)cccc3Cl)s2)cc(N2CC[C@H](O)C2)n1 | Jurkat E6-1 | cell proliferation, CellTiter-Glo | 72 h |  | IC50 | > 10 µM |
| CC(=O)Nc1ccc(O)cc1 | THLE-2 | cytotoxicity | concentration not given, null adenovirus control, with: BSO |  | IC50 | > 1500 µM |
| CC(C)(C)c1cnc(CSc2cnc(NC(=O)C3CCN(C(=O)CCCCCN4Cc5cc6c(cc5C4)C(=O)N(C4CCC(=O)NC4=O)C6=O)CC3)s2)o1 (stereo not drawn) | TC-71 | cell growth, MTT | 72 h |  | IC50 | 0.0047 ± 0.0014 µM |
| C=CC(=O)N1CCC(C(=O)NCCN2CCN(c3nc(-c4cnc(N)nc4C(F)F)nc(N4CCOCC4)n3)CC2)CC1 | SK-OV-3 | Akt phosphorylation, inhibitor, in-cell western, item: Akt pSer473 |  |  | IC50 | 0.0676 µM |
| Cc1cc(Nc2ncc(Cl)c(Nc3ccccc3S(=O)(=O)C(C)C)n2)c(OC(C)C)cc1C1CCNCC1 | NB1 (ALK amplification, exon 2-3 deletion) | cell viability |  |  | IC50 | 0.0123 µM |
| C=CC(=O)N1CCC([C@@H]2CCNc3c(C(N)=O)c(-c4ccc(Oc5ccccc5)cc4)nn32)CC1 | Ramos | calcium flux, FLIPR | 2 h preincubation |  | IC50 | 0.00187 µM |
| COc1c(Cl)cccc1Nc1c(-c2ccncc2OC[C@@H]2COCCO2)[nH]c2c1C(=O)NCC2 | Ba/F3 expressing HER2 L755S | cell growth, inhibitor, CellTiter-Glo |  |  | IC50 | 0.0019 µM |
